Published values from different studies.
Numbered parts are unrelated; each lists some results of a single study.

Set 1
Target: Sox, HMG box (Pigoraptor chileana)
Technique: Spec-seq
Molecule type: double-stranded DNA, one strand shown
Matrix: in vitro
Tested at: not given
Setting: whole probe, mean of replicates
Baseline: not given
Direction: lower = stronger binding
Residues (chain): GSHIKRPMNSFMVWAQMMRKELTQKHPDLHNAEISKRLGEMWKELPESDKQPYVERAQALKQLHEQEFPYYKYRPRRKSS
| Oligonucleotide | relative binding energy [ln ratio] |
| --- | --- |
| GAGTCGTCTCGTCAGCACGAAGGTTCCGTAGAGCACTCAGGTC | 1.4 |
| GAGTCGTCTCGTCAGCACTTTTGTTCCGTAGAGCACTCAGGTC | -2.54 |
| GAGTCGTCTCGTCAGCACACGGGTTCCGTAGAGCACTCAGGTC | 0.285 |

Set 2
Target: Sal-like protein 4, full length isoform A (SALL4, Homo sapiens, UniProt Q9UJQ4, residues 1-1053)
Sequence of UniProt Q9UJQ4 (whole entry, looked up): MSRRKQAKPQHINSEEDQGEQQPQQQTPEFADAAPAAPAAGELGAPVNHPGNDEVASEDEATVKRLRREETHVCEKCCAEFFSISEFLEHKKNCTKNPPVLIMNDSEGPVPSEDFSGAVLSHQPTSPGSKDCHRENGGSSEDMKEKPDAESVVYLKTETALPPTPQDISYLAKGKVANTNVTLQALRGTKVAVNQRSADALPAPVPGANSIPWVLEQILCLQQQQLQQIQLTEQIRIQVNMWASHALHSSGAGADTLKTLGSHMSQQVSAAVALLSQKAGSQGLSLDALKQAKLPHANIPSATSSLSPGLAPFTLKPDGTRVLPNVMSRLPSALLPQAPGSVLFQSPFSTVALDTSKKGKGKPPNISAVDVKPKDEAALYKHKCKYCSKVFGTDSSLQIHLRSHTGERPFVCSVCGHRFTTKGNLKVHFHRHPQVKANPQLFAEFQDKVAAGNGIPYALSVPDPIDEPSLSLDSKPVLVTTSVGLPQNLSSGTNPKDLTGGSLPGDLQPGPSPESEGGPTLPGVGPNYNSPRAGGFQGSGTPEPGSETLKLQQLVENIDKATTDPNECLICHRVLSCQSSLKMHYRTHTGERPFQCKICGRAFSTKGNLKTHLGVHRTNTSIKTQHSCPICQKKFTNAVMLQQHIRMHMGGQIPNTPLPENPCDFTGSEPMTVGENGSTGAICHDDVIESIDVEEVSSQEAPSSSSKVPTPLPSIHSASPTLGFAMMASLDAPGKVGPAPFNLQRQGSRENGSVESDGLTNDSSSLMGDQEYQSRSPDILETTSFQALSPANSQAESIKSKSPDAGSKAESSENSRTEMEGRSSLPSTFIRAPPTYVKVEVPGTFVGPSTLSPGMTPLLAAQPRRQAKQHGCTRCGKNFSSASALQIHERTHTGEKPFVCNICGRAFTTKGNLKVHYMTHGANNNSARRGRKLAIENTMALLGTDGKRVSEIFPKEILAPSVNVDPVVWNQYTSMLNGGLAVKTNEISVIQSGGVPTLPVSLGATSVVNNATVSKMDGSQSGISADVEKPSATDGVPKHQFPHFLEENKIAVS
Technique: universal PBM
Molecule type: double-stranded DNA, one strand shown
Matrix: in vitro
Tested at: 600 nM
Setting: 8-mer, flanks averaged, mean of replicates
Direction: higher = stronger binding
| Oligonucleotide | E-score |
| --- | --- |
| CGAGCACC | -0.167 |
| AATACATC | 0.26 |
| CAACACAC | 0.024 |
| ACTTTGTC | 0.0615 |

Set 3
Target: Interferon regulatory factor 5, full length, phosphomimetic (IRF5, Homo sapiens, UniProt Q13568-2, residues 1-514, K96S/S451D/S453D/S456D/S462D)
Technique: protein-binding microarray
Molecule type: double-stranded DNA, one strand shown
Matrix: in vitro
Tested at: 250 nM
Setting: 60-bp whole probe
Added: salmon DNA 0.4 mg/ml
Baseline: random background probes
Direction: higher = stronger binding
| Oligonucleotide | log fluorescence |
| --- | --- |
| GCCTAGCACGACGGTATCAGGTATCGGGACGTGCTAGTCTTGATTCGCTTGACGCTGCTG | 1.39 z-score |
| GCCTAGCACGACGGTCTCCTTTGCCTGACGTGCTAGGTCTTGATTCGCTTGACGCTGCTG | -0.216 z-score |
| GCCTAGCACTTAGGTTTCGGGTTTCGATTAGTGCTAGTCTTGATTCGCTTGACGCTGCTG | 9.78 z-score |
| GCCTAGCACGCCGGTTTCGACACTGGGGACGTGCTAGTCTTGATTCGCTTGACGCTGCTG | 5.69 z-score |

Single results of other studies
| Molecule | target | test | system | setting | scale | endpoint | result |
| --- | --- | --- | --- | --- | --- | --- | --- |
| PhoQ, residues 284 288 289 292 302 303 SLCLSL | PhoP, residues 12 14 15 18 19 NQCAL (Escherichia coli, UniProt P23836) | Sort-seq, measured: YFP reporter | E. coli | PhoQ-PhoP variant library, added: 10 µM Mg2+ | baseline: high Mg2+ state, higher = stronger signaling | fold induction | 1.15 |

Excerpt of the above (set 3):
| Oligonucleotide | log fluorescence |
| --- | --- |
| GCCTAGCACTTAGGTTTCGGGTTTCGATTAGTGCTAGTCTTGATTCGCTTGACGCTGCTG | 9.78 z-score |
| GCCTAGCACGCCGGTTTCGACACTGGGGACGTGCTAGTCTTGATTCGCTTGACGCTGCTG | 5.69 z-score |
